Published values from different studies.
Numbered parts are unrelated; each lists some results of a single study.
Chain of UniProt Q07002 (whole entry, looked up): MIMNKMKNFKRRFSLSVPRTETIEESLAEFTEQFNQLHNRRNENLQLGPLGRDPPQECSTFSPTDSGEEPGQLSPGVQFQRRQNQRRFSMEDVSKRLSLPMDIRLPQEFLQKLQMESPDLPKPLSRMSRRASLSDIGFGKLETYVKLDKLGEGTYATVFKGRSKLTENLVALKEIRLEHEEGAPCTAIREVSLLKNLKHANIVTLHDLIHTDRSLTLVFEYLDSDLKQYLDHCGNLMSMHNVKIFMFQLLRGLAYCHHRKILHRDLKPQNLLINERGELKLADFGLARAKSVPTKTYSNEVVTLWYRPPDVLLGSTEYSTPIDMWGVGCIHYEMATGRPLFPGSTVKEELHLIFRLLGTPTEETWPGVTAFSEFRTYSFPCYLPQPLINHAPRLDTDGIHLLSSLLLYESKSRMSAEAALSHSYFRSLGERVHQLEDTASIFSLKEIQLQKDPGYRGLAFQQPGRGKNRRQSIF
Chain of UniProt Q9BXA7 (whole entry, looked up): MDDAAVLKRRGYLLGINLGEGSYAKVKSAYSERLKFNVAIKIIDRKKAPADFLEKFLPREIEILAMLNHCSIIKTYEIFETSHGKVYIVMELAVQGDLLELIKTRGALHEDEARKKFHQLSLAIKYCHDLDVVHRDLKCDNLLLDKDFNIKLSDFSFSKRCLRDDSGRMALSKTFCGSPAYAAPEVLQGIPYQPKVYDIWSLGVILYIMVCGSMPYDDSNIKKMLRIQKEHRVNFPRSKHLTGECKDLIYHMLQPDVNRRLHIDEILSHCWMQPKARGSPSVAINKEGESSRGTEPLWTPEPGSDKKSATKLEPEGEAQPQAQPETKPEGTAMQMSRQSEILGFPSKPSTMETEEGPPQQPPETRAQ
Chain of UniProt P07332 (whole entry, looked up): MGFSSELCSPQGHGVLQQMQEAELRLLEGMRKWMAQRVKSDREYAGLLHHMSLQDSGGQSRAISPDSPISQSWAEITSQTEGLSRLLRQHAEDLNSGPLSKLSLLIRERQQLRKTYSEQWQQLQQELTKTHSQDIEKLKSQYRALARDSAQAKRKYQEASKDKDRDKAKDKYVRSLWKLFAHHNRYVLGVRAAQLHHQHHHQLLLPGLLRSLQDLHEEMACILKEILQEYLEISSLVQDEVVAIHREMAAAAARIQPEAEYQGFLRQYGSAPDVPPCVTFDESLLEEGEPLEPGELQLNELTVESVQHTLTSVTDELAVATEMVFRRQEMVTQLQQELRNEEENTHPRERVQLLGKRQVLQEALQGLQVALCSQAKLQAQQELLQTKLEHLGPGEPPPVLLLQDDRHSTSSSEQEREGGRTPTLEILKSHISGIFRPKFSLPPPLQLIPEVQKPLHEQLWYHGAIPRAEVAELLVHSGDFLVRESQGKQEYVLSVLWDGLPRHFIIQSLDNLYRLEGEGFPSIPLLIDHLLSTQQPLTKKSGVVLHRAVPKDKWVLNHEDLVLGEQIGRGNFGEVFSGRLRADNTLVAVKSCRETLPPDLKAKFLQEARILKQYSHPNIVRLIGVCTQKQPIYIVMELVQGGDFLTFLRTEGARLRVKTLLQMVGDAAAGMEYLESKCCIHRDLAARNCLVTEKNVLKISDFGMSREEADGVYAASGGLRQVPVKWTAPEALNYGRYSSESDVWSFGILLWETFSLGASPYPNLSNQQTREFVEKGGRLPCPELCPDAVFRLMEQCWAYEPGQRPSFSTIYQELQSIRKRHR
Chain of UniProt Q86UX6 (whole entry, looked up): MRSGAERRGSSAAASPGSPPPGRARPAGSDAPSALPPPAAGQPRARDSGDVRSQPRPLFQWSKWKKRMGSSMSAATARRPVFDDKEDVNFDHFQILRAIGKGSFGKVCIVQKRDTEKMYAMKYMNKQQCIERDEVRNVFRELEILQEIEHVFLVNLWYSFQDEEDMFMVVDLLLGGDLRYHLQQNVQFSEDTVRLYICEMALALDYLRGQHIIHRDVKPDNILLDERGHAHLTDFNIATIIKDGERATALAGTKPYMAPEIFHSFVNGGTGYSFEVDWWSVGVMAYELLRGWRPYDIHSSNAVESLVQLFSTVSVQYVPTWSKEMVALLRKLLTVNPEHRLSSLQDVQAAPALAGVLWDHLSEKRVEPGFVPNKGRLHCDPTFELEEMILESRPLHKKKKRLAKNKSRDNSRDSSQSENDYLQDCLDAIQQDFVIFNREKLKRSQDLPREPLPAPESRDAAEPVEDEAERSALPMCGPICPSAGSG

Set 1
SMILES: COc1ccc(-c2c(Nc3ccccn3)[nH]c3c(C4=CCCCC4)c(-c4ccccc4)nn3c2=O)cc1
Matrix: plasma
Route: oral
test | system | conditions | plasma concentration, geometric mean
LC-MS/MS | human | 200 mg twice daily, 2 h, single dose | 1020 ng/mL
– | human patients | 400 mg once daily, 2 h, cycle 1 | 2810 ng/mL
– | human patients | 150 mg once daily, 6 h, cycle 1 | 4310 ng/mL
LC-MS/MS | human | 200 mg twice daily, 1 h, single dose | 384 ng/mL
– | cancer patients | 100 mg, 2 h post-dose, single dose | 764 ng/mL
– | cancer patients | 150 mg, 8 h post-dose, single dose | 1120 ng/mL
– | cancer patients | 400 mg, 72 h post-dose, single dose | 53.2 ng/mL
– | human patients | 100 mg once daily, 8 h, cycle 1 | 2920 ng/mL

Set 2
Target: Tyrosine-protein kinase ABL2 (ABL2, Homo sapiens, UniProt P42684)
Chain of UniProt P42684 (whole entry, looked up): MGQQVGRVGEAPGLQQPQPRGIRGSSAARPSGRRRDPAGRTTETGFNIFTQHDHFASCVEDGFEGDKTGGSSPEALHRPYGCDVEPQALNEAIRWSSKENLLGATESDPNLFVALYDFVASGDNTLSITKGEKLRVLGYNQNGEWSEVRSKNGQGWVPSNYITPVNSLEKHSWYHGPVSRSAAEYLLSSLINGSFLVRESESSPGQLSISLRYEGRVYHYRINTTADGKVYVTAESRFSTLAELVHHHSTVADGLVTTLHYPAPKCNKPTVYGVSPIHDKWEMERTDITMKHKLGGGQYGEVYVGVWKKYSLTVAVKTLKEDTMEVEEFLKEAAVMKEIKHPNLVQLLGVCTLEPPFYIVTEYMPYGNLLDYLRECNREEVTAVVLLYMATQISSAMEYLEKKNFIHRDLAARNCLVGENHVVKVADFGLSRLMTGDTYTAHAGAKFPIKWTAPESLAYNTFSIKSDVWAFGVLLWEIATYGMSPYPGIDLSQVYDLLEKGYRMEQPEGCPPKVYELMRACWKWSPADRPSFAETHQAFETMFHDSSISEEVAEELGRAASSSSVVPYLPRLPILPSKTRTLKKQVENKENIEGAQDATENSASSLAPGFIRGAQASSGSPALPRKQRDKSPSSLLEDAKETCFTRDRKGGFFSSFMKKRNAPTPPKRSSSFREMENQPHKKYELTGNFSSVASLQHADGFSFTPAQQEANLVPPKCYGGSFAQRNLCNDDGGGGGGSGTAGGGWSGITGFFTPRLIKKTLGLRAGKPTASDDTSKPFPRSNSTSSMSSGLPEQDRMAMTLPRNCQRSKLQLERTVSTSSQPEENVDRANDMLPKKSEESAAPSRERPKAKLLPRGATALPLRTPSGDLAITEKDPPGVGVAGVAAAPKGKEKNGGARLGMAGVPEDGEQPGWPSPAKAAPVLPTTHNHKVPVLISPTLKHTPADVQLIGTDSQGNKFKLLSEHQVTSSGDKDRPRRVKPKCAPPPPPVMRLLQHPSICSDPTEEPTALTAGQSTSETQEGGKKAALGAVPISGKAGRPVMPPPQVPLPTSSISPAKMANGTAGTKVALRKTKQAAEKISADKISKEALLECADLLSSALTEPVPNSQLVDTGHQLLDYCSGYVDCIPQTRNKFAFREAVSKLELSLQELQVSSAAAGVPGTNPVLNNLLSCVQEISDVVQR
Effect on: enzyme activity
Action: inhibitor
Tested at: 0.5 µM
Baseline: control
Structure (SMILES) | remaining activity [%]
Cn1sc(=O)n(Cc2ccccc2)c1=O | 96.7
COc1cc2ncnc(Nc3ccc(F)c(Cl)c3)c2cc1OCCCN1CCOCC1 | 72
NCCNc1ncc(C(N)=O)c(Nc2cccc(C(F)(F)F)c2)n1 | 88.7
O=S(=O)(c1cccc2cnccc12)N1CCCNCC1 | 87.6
OCC(O)CCON=C1C(c2c(O)[nH]c3ccccc23)=Nc2ccccc21 (stereo not shown) | 38.5
O=c1c2ccccc2[nH]c(=S)n1CCN1CCC(=C(c2ccc(F)cc2)c2ccc(F)cc2)CC1 | 103
O=C(CCCc1ccc(-c2ccccc2F)cc1)Nc1ccc(O)cc1 | 95.3
Cc1nc(-c2ccccc2)c(-c2ccncc2)o1 | 92.8
O=C1NC(=O)C(c2cn(CCCn3ccnc3)c3ccccc23)=C1Nc1ccccc1 | 91.8
Cc1ccc(Nc2nccc(N(C)c3ccc4c(C)n(C)nc4c3)n2)cc1S(N)(=O)=O | 38.5
CO[C@H]1C[C@@H]2CC[C@@H](C)[C@@](O)(O2)C(=O)C(=O)N2CCCC[C@H]2C(=O)O[C@H]([C@H](C)C[C@@H]2CC[C@@H](O)[C@H](OC)C2)CC(=O)[C@H](C)/C=C(\C)[C@@H](O)[C@@H](OC)C(=O)[C@H](C)C[C@H](C)/C=C/C=C/C=C/1C | 94.2
Oc1ccc(-c2nc(-c3ccncc3)c(-c3ccc(F)cc3)[nH]2)cc1 | 91.1
COc1cc2nccc(Oc3ccc(NC(=S)NC(=O)c4ccccc4C)cc3)c2cc1OC | 74.1
Cc1ccc(NC(=O)c2ccc(CN3CCN(C)CC3)cc2)cc1Nc1nc(-c2cccnc2)cs1 | 57.7
CNC(=O)c1cc(Oc2ccc(NC(=O)Nc3ccc(Cl)c(C(F)(F)F)c3)cc2)ccn1 | 99.4
O=C(O)c1ccc2c3c1cccc3c(=O)n1c3ccccc3nc21 | 100
COc1ccc(C(=O)Nc2sc3c(c2C(N)=O)CCCC3)cc1OC | 101

Set 3
Compound: O=C1NC(=O)C(c2cn(-c3ccccc3)nc2-c2ccc(F)cc2)N1 (stereo not shown)
Action: inhibitor
Tested at: 5 µM
Baseline: vehicle
target | test | system | conditions | log2 fold change
Cyclin-dependent kinase 18 (CDK18, Homo sapiens, UniProt Q07002) | – | human cells | – | -0.395
Serine/threonine-protein kinase Nek9 (NEK9, Homo sapiens, UniProt Q8TD19) | kinase-CDC37 interaction | human cells | – | -0.1
Testis-specific serine/threonine-protein kinase 1 (TSSK1B, Homo sapiens, UniProt Q9BXA7) | kinase–CDC37 interaction | – | kinome plate 2@D08 | -0.314
Tyrosine-protein kinase Fes/Fps (FES, Homo sapiens, UniProt P07332) | cell-based kinome screen | human cells | – | 0.095

Set 4
Species: mouse
Matrix: microsomes or S9
Tested at: 2 µM
Time: 0.5 h
SMILES | remaining compound
CC1CCCC(C)N1C(=O)Cn1cnc2cc3c(cc21)OCCO3 (stereo not shown) | 37.4%
Cc1cc2ncccc2c(Br)c1OS(=O)(=O)C(F)(F)F | > 99%
O=C(O)c1cc2ccc(Cl)c(Cl)c2[nH]c1=O | 54.5%
CC(C)c1cc(C(=O)N2CCC(Oc3ccc(-c4ccc(S(C)(=O)=O)cc4F)nc3)CC2)no1 | 0%
CCN1CC(CN(C)c2ncnc3sccc23)Oc2ccccc21 (stereo not shown) | 0.0196%
COC(=O)c1cc(NC(=O)CC2NCCNC2=O)cc(C(=O)OC)c1 (stereo not shown) | 82.5%

Set 5
SMILES: CN(C)CC#Cc1ccc(OCCCc2sc(N3CCc4cccc(C(=O)Nc5nc6ccccc6s5)c4C3)nc2C(=O)O)c(F)c1
Effect on: cell-free assay
Technique: competition with immobilised ligand
Tested at: 1 µM
target | remaining binding
Cyclin-dependent kinase 13 (CDK13, Homo sapiens, UniProt Q14004) | 100%
Serine/threonine-protein kinase WNK3 (WNK3, Homo sapiens, UniProt Q9BYP7) | 100%
Ephrin type-A receptor 8 (EPHA8, Homo sapiens, UniProt P29322) | 100%
Serine/threonine-protein kinase 32C (STK32C, Homo sapiens, UniProt Q86UX6) | 75%
Receptor-type tyrosine-protein kinase FLT3, autoinhibited (FLT3, Homo sapiens, UniProt P36888) | 95%

Excerpt of the above (set 2):
Structure (SMILES) | remaining activity [%]
Cc1nc(-c2ccccc2)c(-c2ccncc2)o1 | 92.8
O=C1NC(=O)C(c2cn(CCCn3ccnc3)c3ccccc23)=C1Nc1ccccc1 | 91.8
Cc1ccc(Nc2nccc(N(C)c3ccc4c(C)n(C)nc4c3)n2)cc1S(N)(=O)=O | 38.5
CO[C@H]1C[C@@H]2CC[C@@H](C)[C@@](O)(O2)C(=O)C(=O)N2CCCC[C@H]2C(=O)O[C@H]([C@H](C)C[C@@H]2CC[C@@H](O)[C@H](OC)C2)CC(=O)[C@H](C)/C=C(\C)[C@@H](O)[C@@H](OC)C(=O)[C@H](C)C[C@H](C)/C=C/C=C/C=C/1C | 94.2
Oc1ccc(-c2nc(-c3ccncc3)c(-c3ccc(F)cc3)[nH]2)cc1 | 91.1
